Measured values from different studies.
Each numbered part is a random draw from the data of one study; scales do not carry over between parts.

Sample 1 — method: RNA Bind-n-Seq; molecule type: RNA; matrix: in vitro; concentration: 365 nM; reference: no-protein control; direction: higher = stronger binding
Target: RNA binding protein fox-1 homolog 2, RRM domain, GST-SBP tag (RBFOX2, Homo sapiens, UniProt O43251-10, residues 100-194)
Notes: natural RNA segment, single round, ends assumed
All sequences stand within: GGGAGUUCUACAGUCCGACGAUC … UGGAAUUCUCGGGUGCCAA
Construct (chain): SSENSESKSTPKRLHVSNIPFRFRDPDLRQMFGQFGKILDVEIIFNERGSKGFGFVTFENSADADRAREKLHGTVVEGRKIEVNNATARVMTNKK
Oligonucleotide | RBNS enrichment (R)
UCCAGACCCCUCUCUAGGACCAAGUCACCCGUCGUGCUGGGAGUGUGGAUUCUAGCAAAAGAGCUGGAAAAAAGUCAGACUCUCCACAGACCCCCUAUGGGGGACCCCCA | 0.356
GCGGGAGCAAGCCCCAGGUUGUGACAGGUGCAGGUAGACAACGCCCAUAAACAGAGAUGGUCCUGAACUCUGGAGAGAUCCUUCCCUGAUCCUUUCGGACGACUACUUGG | 0.335
CUAGAAUAGCCAGUAUUUAUGUUUUUUAUAAAACUGUGCAAUACAAAUUAUGCAAUCACCAUAACUUUGUAACUCCUGAGUGUCCUAAGGGAGUACACAUCUUUGAAGCU | 0.427
UCCUAACAAAGUCUCAUAGUGUUAACACUGGUUCUGCAAUAUCUCUGAGGUGCAAAGAAUGCACUUUUCCCUAUGGGGCCCAGAGUUUGCCUUUUCUGCCAGGCAGUCAC | 0.43
GCAAAAAGAUCUGUAUUUACACUCCUUCACCUAGGGAUGUGUUUGUUGCCCUCCUACCCAAUUGUCAUGAUUGUCCUUAGUACCCUAGGCCUAGAUUCUGAGAUCUUCCC | 0.486
GUGUGUGGCACCUGUGAUGGCAGGGCUGUGAGCUGGGCUUCUGUCCUCCUCUGUGUCCCGGCAUGGAAGCCAGUAUAAGCAUUUCCAAAUGAGGGAAAAGUCCUUGGCUC | 0.941

Sample 2 — method: protein-binding microarray; molecule type: double-stranded DNA, one strand shown; matrix: in vitro; concentration: 2540 nM top; notes: 60-bp whole probe; with: salmon DNA 0.4 mg/ml; reference: random background probes; direction: higher = stronger binding; all sequences stand within: GCCTAGCAC … GTCTTGATTCGCTTGACGCTGCTG
Target: Interferon regulatory factor 3, full length, phosphomimetic (IRF3, Homo sapiens, UniProt Q14653, residues 1-427, S386D/S396D/S398D/S402D/T404D/S405D)
Construct (chain): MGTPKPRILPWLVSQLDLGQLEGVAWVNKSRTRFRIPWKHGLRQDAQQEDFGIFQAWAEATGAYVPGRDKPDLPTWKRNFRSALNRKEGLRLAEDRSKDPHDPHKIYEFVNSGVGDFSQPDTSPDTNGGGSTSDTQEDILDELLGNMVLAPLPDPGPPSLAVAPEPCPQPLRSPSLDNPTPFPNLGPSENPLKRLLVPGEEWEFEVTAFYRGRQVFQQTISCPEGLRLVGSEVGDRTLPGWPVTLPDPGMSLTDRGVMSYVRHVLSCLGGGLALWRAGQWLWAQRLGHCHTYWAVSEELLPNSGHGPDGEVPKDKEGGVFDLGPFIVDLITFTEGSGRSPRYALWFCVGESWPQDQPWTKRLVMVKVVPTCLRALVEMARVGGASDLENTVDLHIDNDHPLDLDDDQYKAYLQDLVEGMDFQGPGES
Oligonucleotide | fitted relative affinity [z-score]
TTAGGTATCCTACTCCTTTAGTGCTAG | 4.23
GACGATATCAGACTGGAGACGTGCTAG | 0.17
GACGGTGTCCTTTCCCTGACGTGCTAG | 4.46
GACGTACTGGGTCTCGGGACGTGCTAG | -0.588
TGAGGTATCCTTCTCCTTTAGTGCTAG | 7.06
TGAGATTCCAGTTTCGATTAGTGCTAG | 4.52
TTAGATATCAGTTTCGATTAGTGCTAG | 4.91
TTAGATATGAGACTGGATTAGTGCTAG | -0.254
TTAGATATCGGGTATCGCTTAGTGCTA | 0.214

Sample 3 — method: RNA Bind-n-Seq; molecule type: RNA; matrix: in vitro; concentration: 200 nM; notes: whole 134-nt RNA, ends assumed; with: 150 mM LiCl; reference: input library; direction: higher = stronger binding; each molecule: 7-deaza-guanosine replaces G
Target: Fragile X messenger ribonucleoprotein 1, C-terminal low-complexity region (Fmr1, Mus musculus, UniProt P35922)
All sequences stand within: GGGAGUUCUACAGUCCGACGAUC … UGGAAUUCUCGGGUGUCAAGG
Oligonucleotide | log2 enrichment
UCCUGUGCUACACAUCGUAUGUACCGAAUCGGGGAAAAAAAGGGGAAAAAGGGGAGGGGAAAGUAUUAUGUUACGCCGUUCGGAUCUGCA | -0.463
GCAGGAAGUAAAAACAAAUGGAAAUGCUUCGGAUAGUGGCAGGGGUGAAAGUUGCUAAGGAAAGGGUGGGAUGGGAGUGGGUAAAGAGUU | 1.79
UCCUGUGCUACACAUCGUAUGUACCGAAUCGGGGUUUGGGGAAAAAAAGGGGUUUGGGGAAAGUAUUAUGUUACGCCGUUCGGAUCUGCA | -0.836
CACAGACAACACGCACCCACACAGACACAGAGGGAAGGGGUUGGGAUGGGGACAGGGUGCACAGCAGGGUGGGGUAGGACCCCAGCCCCU | 0.601
CUCAAGUCCUGUGCUACACAUCGUAUGUACCGAAUCGGUGGAAAGGUUUUUGGAAAGUAUUAUGUUACGCCGUUCGGAUCUGCACUUCCA | -0.111
CACAGACAACACGCACCCACACAGACACAGAGGGAAGGGGUUGGGAUGGGGACAGGGUGAACAGCAGGGCGGGGUAGGACCCCAGCCCCU | -0.307
ACCAUGCAGGUGGGUAUCUUUGGGAAGUGGGGCAAGGGGGGGAUAGGGAGGGGGGUAACACUUUGGGAACAGGUGGUCCCAGGUCGUUUC | 1.18

Mixed results
Substance | target | test | system | conditions | scale | endpoint | result
PhoQ, residues 284 288 289 292 302 303 SIHMAM | PhoP, residues 12 14 15 18 19 NQAHL (Escherichia coli, UniProt P23836) | Sort-seq, item: YFP reporter | E. coli | PhoQ-PhoP variant library, with: 10 µM Mg2+ | reference: high Mg2+ state, higher = stronger signaling | fold induction | 1.37
